Measurements from different studies.
Lines come from different studies, so protocols differ. Values joined by “and” are separate records of one study, mostly repeats; a detail may differ. ± marks the error that the study gave.

O=C(Nc1ccccc1)c1cc([N+](=O)[O-])ccc1[76Br] — intact radiotracer (heparinized rat blood; 30 min): 10%
CC(C)c1c(C(=O)Nc2ccc(O)cc2)c(-c2ccccc2)c(-c2ccc(F)cc2)n1CC[C@@H](O)C[C@@H](O)CC(=O)O — chromatographic hydrophobicity index (reverse phase LC, C18; acetonitrile gradient, 0.1% formic acid; converted from retention time; baseline: Valko CHI standards): 78.2
CC1(C)OC[C@H](c2ccc(F)cc2Cl)N[C@@H]1c1ccc(Cl)c(Cl)c1 — logD (shake-flask, 1-octanol/buffer; pH 7.4): > 4.7
COc1ccc2[nH]c([S+]([O-])Cc3ncc(C)c(OC)c3C)nc2c1 (centres unmarked) — t1/2 (healthy Chinese volunteers, CYP2C19 poor metabolizers; oral, 20 mg, fed): 2.72 ± 0.92 h
Cl.[2H]C([2H])([2H])CC(=O)c1cnc(NC(=O)C2CC2)cc1Nc1cccc(-c2ncn(C([2H])([2H])[2H])n2)c1OC — half-life (geometric mean; human; oral, 10 mg once daily, day 1, fasted, liquid, multiple dose): 7.41 h
O=[N+]([O-])c1cc2c3ccccc3ccc2c2ccccc12 — tumours per rat (measured: adenocarcinoma mammary tumours; female Sprague-Dawley rats; intramammary, 12.3 µmol per rat, up to 32 weeks): 1.39 ± 1.2
OCc1nc2ccc(NCc3ccc(C(F)(F)F)cc3)cc2[nH]1 — tissue concentration (Balb/c mouse, male, liver; intravenous, 1 mg/kg, 48 h): 1.7 ± 0.2 ng/g
Fc1ccc([C@@H]2COC[C@H](c3cc(Cl)cc(Cl)c3)N2)cc1 — logD (shake-flask, 1-octanol/buffer; pH 7.4): > 4.7
Cc1ccc([C@@H]2O[C@H](CO)[C@@H](O)[C@H](O)[C@H]2O)cc1Cc1ccc(-c2ccc(F)cc2)s1 — urinary chloride excretion change (Japanese type 2 diabetes patients; 100 mg, day 5, 24 h urine collection; baseline: baseline): 18.2 mEq
CCn1cc(C(=O)N2CCOCC2)c(=O)c2cc(NC3Cc4ccccc4C3)cnc21 — Tmax (human, fed; oral suspension, 300 mg/day twice daily, day 1, median): 4 h
O=C(Nc1nc2cccc(-c3ccc(CN4CCS(=O)(=O)CC4)cc3)n2n1)C1CC1 — treatment-emergent adverse events (measured: ear and labyrinth disorders; human rheumatoid arthritis patients; oral, 300 mg once daily, 4 weeks, regardless of relatedness): 0%
CCOc1c([C@H](C)n2nc(C)c3c(N)ncnc32)cc(Cl)c(F)c1[C@@H]1CNC(=O)C1 — half-life (patients, monotherapy; oral, 20 mg once daily, cycle 1 day 15): 9 ± 3.4 h
C/C=C/C[C@@H](C)C(=O)[C@H]1C(=O)N[C@@H](C(C)C)C(=O)N(C)CC(=O)N(C)[C@@H](CC(C)C)C(=O)N[C@@H](C(C)C)C(=O)N(C)[C@@H](CC(C)C)C(=O)N[C@@H](C)C(=O)N[C@H](C)C(=O)N(C)[C@@H](CC(C)C)C(=O)N(C)[C@@H](CC(C)C)C(=O)N(C)[C@@H](C(C)C)C(=O)N1C — total plasma concentration (Sprague Dawley rat, plasma; intravenous infusion, 0.09 mg/h/kg, 4 h, 4.5 h constant infusion): 404 ng/mL
OC[C@H]1O[C@@H](c2ccc(Cl)c(Cc3ccc(O[C@H]4CCOC4)cc3)c2)[C@H](O)[C@@H](O)[C@@H]1O — Vdss/F (human, plasma; oral, steady state, EV treatment): 86.1 ± 18.4 L
CCN1CCN(Cc2ccc(Nc3nc4ccc(Oc5ccnc(NC(=O)C6CCN(C)CC6)c5)cc4n3C)cc2C(F)(F)F)CC1 — oral bioavailability (plasma; oral): > 100%
CCC(CC)[C@@H]1COC[C@H](c2ccc(C(C)(C)C)cc2)N1 — logD (shake-flask, 1-octanol/buffer; pH 7.4): > 4.7
CCc1cc(C(=O)NC)c2nccc(N3CCc4c(cc(Cn5ccnc5)cc4-c4cn(C)nc4C(F)(F)F)C3=O)c2c1 — body weight change (Sprague Dawley rat; oral, 50 mg/kg once daily, day 5, 7-day toxicology study; baseline: day 1): 13.4%
CN(C)C/C=C/C(=O)Nc1cc2c(Nc3ccc(F)c(Cl)c3)ncnc2cc1O[C@H]1CCOC1 — cysteine adduct formation (MES buffer; 100 µM, 23 h, pH 5.5, 37 °C, added: cysteine 10 mM): 92%
CN(CCC#N)C1CCN(C(=O)Cn2cc(NC(=O)c3cnn4cccnc34)c(-c3cc(Cl)ccc3OC(F)F)n2)CC1 — LDL cholesterol change (healthy human; 10 mg once daily, day 42; baseline: baseline): -22.4 mg/dL
NC(=O)c1ccc(C(=O)Nc2cc(C3CC3)[nH]n2)cc1 — logD (octanol/buffer; 67 µM, pH 7.4): 1.33
CCC(=O)N(CCC(c1ccc2c(c1)OCO2)c1ccccc1OC)Cc1ccccc1 (centres unmarked) — HGB (female athymic nude mouse, blood; i.p., 60 mg/kg twice daily, 14 days, group mean): 14.9 g/dL
CC(C)Nc1ccnc(Nc2cccc(-c3ccncc3)c2)n1 — efflux ratio (MDCKII-WT cells; 10 µM, pH 7.4; baseline: Papp B-A over A-B): 0.59
c1ccc(CN2CCCN3CCN(Cc4ccccc4)CCCN(CC2)Cc2cccc(n2)C3)cc1 — intact complex (64Cu complex; 24 h, pH 7.4, 37 °C, added: DOTA excess): 93%
CNCCOC12CC3(C)CC(C)(CC(Cn4ncc(-c5ccc(N6CCc7cccc(C(=O)Nc8nc9ccccc9s8)c7C6)nc5C(=O)O)c4C)(C3)C1)C2 — dP/dt at 50 change (beagle dog, male, anaesthetised; intravenous bolus, 0.03 mg/kg, 15 min; baseline: baseline): 10%
Cc1ccc(O)c(-n2nc3ccccc3n2)c1 — daily dermal uptake, percentile (exposure assessment; human, age 21-60 years; concentration not given, spray sunscreen, 95th percentile): 3150 ng/kg body weight/day
Oc1ccc(/C=C/c2cc(O)cc(O)c2)cc1 — sodium (rat, azoxymethane-injected, blood at sacrifice; 10 mg/kg): 147 mEq/L and 149 mEq/L and 146 mEq/L
C=CC(=O)NC1CCN(c2ncc3ncnc(Nc4ccc(Oc5ccc6c(c5)ncn6C)c(C)c4)c3n2)CC1 — subjects discontinuing due to adverse events (healthy male volunteers; intravenous then oral, dose not given, 1 week, oral 2 h after infusion): 0%
CC[C@@H]1CN(C(=O)NCC(F)(F)F)C[C@@H]1c1cnc2cnc3[nH]ccc3n12 — absorption lag time (population PK modelling; human; oral, extended-release formulation, outliers re-estimated): 0.154 h
CC(C)(C(=O)N1CCOc2c(C#N)cncc2C1)C(F)F — subjects with adverse event (measured: chest discomfort; human; oral, 20 mg once daily, 14 days, multiple ascending dose): 0%
Cc1cc(NC2CCN(C(=O)OC3CCN(C(=O)/C=C/CN(C)C)C3)CC2)n2ncc(C(C)C)c2n1 (centres unmarked) — patients with adverse event (Phase I dose escalation CTCAE v4.0, measured: small intestinal obstruction; patients with advanced solid tumours; dose not given, Total dosing any grade): 6%
CC1CCN(S(=O)(=O)c2ccc(Cl)c(C(=O)Nc3ccc(C(=O)O)cc3)c2)CC1 — logD (octanol/buffer; pH 7.4): 0.82
O=C(O)CCC(=O)O.[2H]C([2H])([2H])Oc1cc(C)c2[nH]ccc2c1CN1CC[C@@H](C2CC2)C[C@H]1c1ccc(C(=O)O)cc1 — subjects with drug-related TEAE (healthy Chinese subjects; 50 mg twice daily, multiple ascending dose): 12.5%
Nc1ccc2c(c1)S(=O)(=O)C=C2 — conversion to thiol conjugate (PBS; 50 µM, 24 h, pH 7.4, 37 °C, added: equimolar thiol): 30 to 40%
COc1cc2c3c(n(CCCN4CCOCC4)c(=O)c2cc1OC)-c1cc2c(cc1C3=O)OCO2 — CL/F (beagle dog, female, plasma; oral, 1720 mg/m^2, gelatin capsule): 274 L/h/m² and 738 L/h/m²
COc1ncc(-c2nc3c(n2C(C)C)[C@H](c2ccc(Cl)cc2)N(c2cc(Cl)cn(C)c2=O)C3=O)c(OC)n1 — median half-life (human patients, plasma; oral, 4 mg, cycle 1 day 1, low-dose): 14.3 h
C=CCN1CC(=O)N2[C@@H](Cc3ccc(O)cc3F)C(=O)N(Cc3cccc(N4CC(N5CCN(CC)CC5)C4)n3)C[C@@H]2N1C(=O)NCc1ccccc1 — treatment-related vomiting (advanced solid tumour patients; oral, 120 mg twice daily, any grade, dose-escalation): 25%
FC(F)(F)c1ccc(CNc2ccc(Cc3c[nH]c4ncc(Cl)cc34)cn2)cn1 — adverse event incidence (measured: Nausea; patients with advanced solid tumours; oral, dose not given, all grades, possibly related to drug): 35%
O=C(Cn1ccc([N+](=O)[O-])n1)N1CCCc2ccccc21 — logD (octanol/buffer; pH 7.4): 1.99
C=CCn1c(=O)c2cnc(Nc3ccc(N4CCN(C)CC4)cc3)nc2n1-c1ccc2c(n1)[C@@](O)(CC)CC2 — AUC(0-24) (female NOD/SCID mouse OVCAR-3 xenograft, plasma; oral, 100 mg/kg once daily, :3): 43900 ng·h/mL
C[C@H]1CNCCCN1S(=O)(=O)c1cccc2cncc(F)c12 — subjects with soft faeces (healthy adult men; ocular, 1 drop per eye twice daily, 8 days, adverse event): 5.6%
C[C@@H](c1ncncc1F)[C@](O)(Cn1cncn1)c1ccc(F)cc1F — grade 1 TEAE (human; oral, 200 mg, drug interaction trial): 9.1%
CCN1/C(=C/C(C)=O)Sc2ccc(F)cc21 — PR interval change (cynomolgus monkey; oral, 30 mg/kg, 1 h post-dose; baseline: pre-dose): 101 ± 3.8%
Cc1ccc(N(C)C(=O)/C=C/c2ccco2)cc1 — licking latency (cold plate test; mouse; oral, 30 mg/kg single dose, 30 min): 19.4 ± 0.5 s
NC(N)=NCCC[C@@H](N)C(=O)N[C@@H](CCCN=C(N)N)C(=O)N1CCC[C@H]1C(=O)N1C[C@H](O)C[C@H]1C(=O)NCC(=O)N[C@@H](Cc1cccs1)C(=O)N[C@@H](CO)C(=O)N1Cc2ccccc2C[C@@H]1C(=O)N1[C@H](C(=O)N[C@@H](CCCN=C(N)N)C(=O)O)C[C@@H]2CCCC[C@@H]21 — absorption rate constant (ka) (popPK base model typical value; human; subcutaneous): 3.25 h⁻¹
Cc1cc(Nc2cc3ncccc3c(N[C@@H]3C[C@H]4CC[C@@H](C3)N4CCC#N)n2)n[nH]1 — skin subcutaneous disorders incidence (healthy human subjects; oral, 100 mg, 14 days, multiple ascending dose): 17%
C=CC(=O)N1CCC([C@@H]2CCNc3c(C(N)=O)c(-c4ccc(Oc5ccccc5)cc4)nn32)CC1 — stability relative error (rat plasma; 2 ng/mL, three freeze-thaw cycles; baseline: nominal concentration): -1.2%
C[C@@H](NC(=O)N1C(=O)[C@H](Cc2ccnc(N)c2)[C@H]1C(=O)O)C1CCCCC1 — CL (UPLC-MS/MS; healthy adult Chinese volunteers, plasma; continuous intravenous infusion, 0.3 mg/kg/h, day 6 of 5-day infusion, mean): 4.98 mL/min/kg
N#Cc1ccc2c(c1)[C@H]1CCCN(C(=O)c3ccc4[nH]cnc4c3)[C@H]1C2 — DHEA-S level (human, female; 240 mg, end of trial): 3.5 µmol/L
C=CC(=O)Nc1cc(Nc2nccc(-c3cn(C4CC4)c4ccccc34)n2)c(OC)cc1N(C)CCN(C)C — HGB (BALB/c nude mouse, LU0387 xenograft, blood; oral, 40 mg/kg): 15.2 ± 0.462 g/dL
CCOC(=O)N1C[C@@H](C2CCCCC2)N[C@@H](c2ccc(C(C)(C)C)cc2)C1 — logD (shake-flask, 1-octanol/buffer; pH 7.4): > 4.7
O=C(Cn1c(NCCO)nc2ccccc21)c1cccc([N+](=O)[O-])c1 — logD (octanol/buffer; pH 7.4): 1.75
C[C@H](NC(=O)[C@H](CCC(N)=O)NC(=O)[C@H](C)NC(=O)[C@H](CCCNC(=N)N)NC(=O)[C@H](CCC(N)=O)NC(=O)[C@H](C)NC(=O)[C@H](CCCNC(=N)N)NC(=O)[C@H](CCC(N)=O)NC(=O)[C@H](C)NC(=O)[C@H](CCC(N)=O)NC(=O)[C@H](CCCNC(=N)N)NC(=O)[C@H](C)NC(=O)[C@H](CCC(N)=O)NC(=O)[C@H](CCCNC(=N)N)NC(=O)[C@H](C)NC(=O)[C@H](CCC(N)=O)NC(=O)[C@H](C)NC(=O)[C@H](CCCNC(=N)N)NC(=O)[C@H](CCC(N)=O)NC(=O)[C@H](C)NC(=O)[C@H](CCCNC(=N)N)NC(=O)[C@H](CO)NC(=O)[C@H](Cc1ccc(O)c(I)c1)NC(=O)CNC(=O)CNC(=O)CN)C(=O)N[C@@H](CCCNC(=N)N)C(=O)N[C@@H](CCC(N)=O)C(=O)N[C@@H](C)C(=O)N[C@@H](CCCNC(=N)N)C(=O)N[C@@H](CCC(N)=O)C(=O)O [iodine-125 labelled] — tissue uptake (H2-Ld-huIL-6 Tg Balb/c mice, AA amyloidosis, pancreas; intravenous, 4 h, decay-corrected): 24.7 %ID/g
Cc1ccc(Nc2ncnc3ccc(-c4cccc(N5CCOCC5)c4)cc23)cc1 — CLint (human liver microsomes): 100 µL/min/mg
CCCCCN1C[C@H](O)[C@@H](O)[C@H](O)[C@@H]1CO — geometric mean brain concentration (LC-MS/MS; Hexb-/- mice, male, brain; 30 mg/kg/day): 37 ng/g
O=C(O)CCCOc1ccc([18F])cc1-c1cc(-c2ccccc2C(F)(F)F)n(-c2ccccc2)n1 — radioactivity uptake (gamma counting; male ddY mice, kidney; intravenous, 2.1 MBq, 60 min): 2.1 ± 0.38 SUV
CN(CCC(=O)O)C(=O)c1ccc2c(c1)CC[C@@H]1[C@@H]2CC[C@]2(C)C(c3cncc(F)c3)=CC[C@@H]12 — direct bilirubin change (premenopausal women, endometriosis pain, serum; 60 mg twice daily, visit 4, mean; baseline: baseline): 0.21 mg/dL
